Assay results of several laboratories.
Each line is one published result; not all experiments were run side by side.
Route: oral

SMILES	assay	system	conditions	how to read	endpoint	result
C[C@@H](Nc1cc(F)cc(F)c1)c1cc(C(=O)N(C)C)cc2c(=O)cc(N3CCOCC3)oc12	CTCAE v4, refers to: confusional state	patients with advanced solid tumours	dose not given, phase I dose expansion	–	patients discontinuing for AE	0%
COc1cc(Nc2ncc3c(n2)-c2ccc(Cl)cc2C(c2c(F)cccc2OC)=NC3)ccc1C(=O)O	refers to: Dysgeusia, all grades	cancer patients, phase 1/2	dose not given, added: pembrolizumab	–	patients with adverse event	13%
CNC(=O)c1ccc(-c2cnc3ncc(Cc4ccc5ncccc5c4)n3n2)cc1F	refers to: Insomnia	other cancer patients	600 mg twice daily, expansion cohort, grade 3-4	–	patients with adverse event	0%
COc1cc2nccc(Oc3ccc(NC(=O)c4cc5c(n(-c6ccccc6)c4=O)CCCC5=O)nc3)c2cc1OC	CTCAE	patients with relapsed/refractory AML	10 mg once daily	–	patients, with TEAEs, drug-related grade ≥3	14.3%
CCOc1c([C@H](C)n2nc(C)c3c(N)ncnc32)cc(Cl)c(F)c1[C@@H]1CNC(=O)C1	refers to: QTcF change above 60 ms	previously treated B-cell malignancy	20 mg once daily, overall population	reference: baseline	patients	2.9%
Cc1cc(-c2nnc(N)nc2-c2ccc(F)cc2)cc(Cl)n1	refers to: Myositis	IO-naive mCRPC patients, male	dose not given, treatment-related, grade 1	–	patients with immune-mediated AE	0%
CNC(=O)c1cc(Oc2ccc(NC(=O)Nc3cc(C(C)(C)C)nn3-c3ccc4ncccc4c3)c(F)c2)ccn1	–	patients	dose not given, cycles 1 and 2, Low Cmax subgroup	–	patients with grade 3 cardiac disorders	6%
O=C(Nc1nc2cccc(-c3ccc(CN4CCS(=O)(=O)CC4)cc3)n2n1)C1CC1	–	rheumatoid arthritis patients	100 mg twice daily, 4 weeks, regardless of relatedness	–	patients with food allergy	0%
Cc1cc(NC2CCN(C(=O)OC3CCN(C(=O)/C=C/CN(C)C)C3)CC2)n2ncc(C(C)C)c2n1 (stereo not drawn)	CTCAE v4.0, refers to: Constipation	patients with advanced solid tumours	dose not given, all schedules, grade 3 or higher	–	patients with TEAE	0%

Repeated from above:
SMILES	assay	system	conditions	how to read	endpoint	result
Cc1cc(-c2nnc(N)nc2-c2ccc(F)cc2)cc(Cl)n1	refers to: Myositis	IO-naive mCRPC patients, male	dose not given, treatment-related, grade 1	–	patients with immune-mediated AE	0%
